Measurements pooled from the literature.
pEC50, pIC50: −log10 of the molar value. In brackets after ≈: the same amount, converted by molar mass.
Organism: Plasmodium falciparum

For `CN1CCC(c2cc(-c3ccncc3)c(-c3ccc(F)cc3)[nH]2)CC1`, the egress was 24% (Nluc release; Hyp1-Nluc schizonts; concentration not given, 30 min; reference: DMSO control).
`CS(=O)(=O)c1ccc(-c2cnc(N)c(-c3ccc(C(F)(F)F)nc3)c2)cc1` gave an MIC free of 0.0115 µg/mL (≈ 0.0292 µM) (SCID mice; blood stage PKPD model).
With `CC(C)(C)c1ccc(O)c(CNC2CCCCC2)c1` the pIC50 was < 4.70 (exflagellation; stage V gametocytes; 24 h, compound washed out).
For `Clc1ccc2c(Nc3ccc(C4COCCN4Cc4ccccc4)cc3)ccnc2c1` (centres unmarked), the pIC50 was ≤ 6.60 (parasite growth, SYBR Green; DD2; 72 h, drug-resistant strain, blood stage).
The growth inhibition of `CCN(CC)CCCC(C)Nc1ccnc2cc(Cl)ccc12` (centres unmarked) is reported as ~100% ([3H]hypoxanthine incorporation; 3D7; 10 µM, 96 h).
For `COc1ccc(C(=O)/C=C/c2cc(CN3CCN(c4ccnc5cc(Cl)ccc45)CC3)c(O)c(OC)c2)c(OC)c1`, the pIC50 was 6.22 to 6.52 (parasite growth; W2; drug-resistant strain, blood stage).
`COc1ccc(C(F)(F)F)cc1CN(C)C(c1cccnc1)c1nnnn1-c1ccccc1C` (single isomer, unassigned; (+)) has a pEC50 of 5.80 (parasite growth, SYBR Green; 3D7; 72 h).
`O=C(NN=Cc1c(O)ccc2ccccc12)c1ccncc1` has an IC50 increase of 102% (parasite growth, [3H]hypoxanthine incorporation; 3D7; 48 h; reference: Fe(III) complex over free ligand).
`CCN1CCC(c2ccc(Nc3ccnc4cc(Cl)ccc34)cc2)CC1` has a pIC50 of 8.30 (parasite growth, SYBR Green; D6; 72 h, blood stage).
`O=C1c2cc([N+](=O)[O-])ccc2-n2c1nc1cc(Cl)ccc1c2=O`: “mature gametocyte reduction” 40 to 50% (stage II gametocytes, NF54; IC50, 2 d, counted at day 7; reference: DMSO).
For `Clc1ccc2c(Nc3ccc(C4CCNCC4)cc3)ccnc2c1`, the pIC50 was 8.05 (parasite growth, SYBR Green; D6; 72 h, blood stage).
`CCOC(=O)C1=C(C)NC2=C(C(=O)CC(c3ccc(OC)c(OC)c3)C2)C1c1ccccc1Cl` (centres unmarked) has a pIC50 of < 4.70 (female gamete formation, item: Pfs25; stage V gametocytes; 24 h, compound carried over).
`CC(C)CN1CCN(c2ccc(Nc3ccnc4cc(Cl)ccc34)cc2)CC1` gave a pIC50 of 8.10 (parasite growth, SYBR Green; D6; 72 h, blood stage).
`O=C(/C=C/c1ccc(O)c(CN2CCCCC2)c1)c1ccc(F)cc1` gave a pEC50 of < 4.53 (parasite growth; 3D7; 72 h, blood stage).

Repeated from above:
`CC(C)CN1CCN(c2ccc(Nc3ccnc4cc(Cl)ccc34)cc2)CC1` gave a pIC50 of 8.10 (parasite growth, SYBR Green; D6; 72 h, blood stage).
